Assay results collected from several papers.
A part holds a random share of what one study measured. Changes are numbered by the printed parent chain.

Study 1
Target: Histone acetyltransferase KAT6A, both winged helices, GST fusion (KAT6A, Homo sapiens, UniProt Q92794, residues 1-181)
Method: protein binding microarray
Form: double-stranded DNA, one strand shown
Medium: in vitro
Tested at: not given
Notes: 8-mer, flanks averaged, mean of 2 arrays, mostly near background
Reference: not given
Direction: higher = stronger binding
Residues (chain): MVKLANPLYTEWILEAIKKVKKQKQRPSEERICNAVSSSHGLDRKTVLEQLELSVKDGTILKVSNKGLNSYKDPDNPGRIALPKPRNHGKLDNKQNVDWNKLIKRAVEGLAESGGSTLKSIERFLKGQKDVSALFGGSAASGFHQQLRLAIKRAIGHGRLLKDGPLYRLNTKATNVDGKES
Sequence | E-score
ACGCGACG | 0.261
AAGCAGCG | 0.083
CAGACCAA | -0.215
ACATCCCT | -0.0979
GCTTTGCA | -0.0769
GCTGTAAA | -0.127
ACTGCAGC | -0.067
ATTGGCTA | -0.0834
AAGAGAGG | -0.202
TAAAGATA | -0.0623
ACATGCCT | -0.0683
GATCGGAA | 0.124
AGACTTCA | -0.228
ACAGGTAC | -0.136
TCACAGCA | -0.0395
ATGTCAGA | -0.0693
CAGTATCC | -0.0263
CGGTACAA | 0.206
AACAATAT | 0.0292
GGCCACTA | -0.0476
GACTGCTC | -0.0822

Study 2
Target: ABI1, truncated, D143A, DHFR fusion (Arabidopsis thaliana)
Method: DHFR PCA, deep sequencing
Medium: yeast
Notes: methotrexate growth selection, single substitutions
Added: (+)-ABA 0 µM
Reference: wild-type fitted maximum
Direction: higher = stronger binding
Parent: PYL1, truncated, DHFR fusion (Arabidopsis thaliana); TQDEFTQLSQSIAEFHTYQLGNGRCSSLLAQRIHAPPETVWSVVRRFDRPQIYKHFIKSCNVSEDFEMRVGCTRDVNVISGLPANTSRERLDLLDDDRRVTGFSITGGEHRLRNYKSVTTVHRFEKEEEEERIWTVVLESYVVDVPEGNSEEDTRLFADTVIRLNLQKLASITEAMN
Change | relative binding score
D65G | 21.1%
Y18N | -0.207%
A30Y | 9.46%
G71A | 4.22%
L166Q | 6.09%
V118E | -6.8%
D144I | -15.7%
F124S | 4.51%
A175I | -2.98%
A13P | -7.7%
W41F | 0.762%
Q31A | 2.51%
I162E | 4.34%
T154L | -6.74%
N177G | 31.3%
D153K | -4.89%
P50R | -0.259%
H110D | 48.2%
Q51F | -2.19%
S80H | 30.2%

Study 3
Target: RING finger protein unkempt homolog, zinc fingers 1-6, SBP tag (UNK, Homo sapiens, UniProt Q9C0B0, residues 30-357)
Sequence of UniProt Q9C0B0 (30-357, looked up): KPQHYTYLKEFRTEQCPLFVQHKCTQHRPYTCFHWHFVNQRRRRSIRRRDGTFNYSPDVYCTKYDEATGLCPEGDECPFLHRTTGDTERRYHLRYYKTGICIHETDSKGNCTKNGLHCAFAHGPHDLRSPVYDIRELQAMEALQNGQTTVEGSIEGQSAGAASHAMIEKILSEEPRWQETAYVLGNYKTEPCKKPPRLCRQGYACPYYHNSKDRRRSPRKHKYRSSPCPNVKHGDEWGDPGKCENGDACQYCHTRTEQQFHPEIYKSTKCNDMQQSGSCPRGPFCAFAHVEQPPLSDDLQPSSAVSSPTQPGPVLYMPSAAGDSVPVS
Method: RNA Bind-n-Seq
Form: RNA
Medium: in vitro
Tested at: 100 nM
Notes: RNA with constant flanks, vertebrate orthologous sites, ends assumed
Reference: input RNA pool
Direction: higher = stronger binding
All sequences stand within: GGGAGUUCUACAGUCCGACGAUC … CAACAGAGGAUUGAGCAUCA
Sequence | bound/input enrichment [ratio]
UUCAGUCCCCUGGGCUGGGACACUUGUUUUUUAACAUCUUGAAAUUUAACUCUGUGCUUGUAGAAGACUGUAACCUUUUUUUCUUUUUUUUUUUUUAAACAACCUCCACCUCCAGUGGCU | 2.02
AUCCCUCAGUGACAGUAUGCCUUCUGUAGCAGAUUCCCACUCUAGUCAUUUUUCUGAAUUUAGUUGUUCUGACCUAGAAAGCAUGAAAACUUCUUGUAGUCAUGGUUCCAGUGAUUAUCA | 2.93
UCGCCCAGUUCAUCCCAGCAGCUUCGCCCUCCGACCUGCACAGCUUGCAAAGGAACAGUCUAGUGGUAUUUGUAUUUUAAUUUAAAACCUGCUUUUCCCAAAACUGAUCAAGAAGCUACG | 0.573
CAGUAGCGCUUCAGCCAGCAGUUGUAGAAUGCUAUUUAUUCGUGUCUGUAAGUUUGUACAUAACCCUAACCUCGUAGGCAAGUUUGAGUUUUCUUUCCUUUGAUGCAGAUGCUUGGGUUU | 0.456
AAGACGGUGGUUGUACAUUAUUUCAUUUAGAAAAUAUGAAAACUCAUCUUGUUUUGAAGCUAGGUGUUAAACUGGAAUAGCUAUUACGUUCUUGAAAAAUGGGGCAGUUGUGCCCUUUCC | 0.632
GCAAAUCCAAUCACUGUGAUAUUUAAAAUAUGCACAGUCCUAAUUCUUUCUUGAUGGUCCUAGUAUUUUUCUAGCUGUAUCUUUAUAUCUCAUACUGUUAUUUAUCAGUUUUGUUCCCCU | 0.962
AAUGAGAUGUUUUAACUGUUUAAACAUUAAAUGCAAGCUUUGCUUUUUUGCAUUUGAAUAUAGAGUACUUUUAUAUUGUAAGUGCUUCAAAAGUGUGGAGAUGUUAGAUUUGCUCUUAUA | 0.374
CAUGCACAUGCCGCUGUCACCAAAAGCAAACACCUUUUUCAAAUACAUUAAUAGCAUUUUUAAUAUUCCCUCUUUCCUUCUAAUAGUUUUUAGCAUUAGAGGAACAGAAAUCUUGAUUCU | 3.5

Study 4
Target: Sal-like protein 4, full length isoform B (SALL4, Homo sapiens, UniProt Q9UJQ4-2, residues 1-616)
Method: universal PBM
Form: double-stranded DNA, one strand shown
Medium: in vitro
Tested at: not given
Notes: 8-mer, flanks averaged, mean of replicates
Direction: higher = stronger binding
Sequence | E-score
ATCCAGTG | -0.0239
GGAGGGCC | -0.356
GTTAGCCA | -0.124
AAGTCCAA | 0.148
GATCTCGC | -0.116
ACTACATA | 0.286
TCCATACA | 0.149
ACGTGCGC | -0.101
CAATCCTC | -0.0296
ACGTTATC | 0.0719
ATGTGTGA | 0.142
ACTAAAAT | 0.25
ATCGGTCG | -0.125
CAGTTCGC | -0.0179
GGGCTCTA | -0.18
ATCGATTC | -0.0256
AAGGATAT | 0.217
GCATTGGA | 0.0764
GCTCGTGA | -0.192
CAACACGA | -0.00915
CACCACTG | -0.116
CTGGTTTA | 0.053
CCGTCACC | -0.181
CGCAGCCA | -0.209

Study 5
Read-out: peptide binding
Form: peptide
Medium: yeast competitive growth
Added: B1-Cln2 chimera
Direction: direction not given
Sequence | enrichment score
RVSGLLSWTLSRVLWL | -0.88
KDDDKAWEYEERDRRS | -0.0202
KRRLDLETDHQY | 0.766
KPITLDTTDFQESFVT | 0.807
ISRLFPPRTPGWHQLQ | -2.47
PFSENVSAVQKLDFSD | 2.16
RDLFDCDFGDLTPLDF | 1.65
RSLKLDGLLEEN | -0.432
KSKHEEEEWTDDDLVE | 0.766
LAKRALKYTD | -0.436
VLLKRLQDVVSERANH | -1.21
GQLVIPLDELTLDTSF | 2.35
QDYERRLLRQIVIQNE | -0.509
TSPGPVLLHPSPSTTQ | 0.507
PLRKAKRARLCSSSSS | 2.32
MNQELLSVGSKRRRTG | 2.24
SDSTVTKLDFDLEP | 2.58
SFLIEYEFLIPPSLKP | 0.608
IQKKLRFEDTLEFVGF | -0.323
TRRRLFVENDSP | -0.397
CFRCLLFSFSGRSGVE | -1.28
ALLRRLQDVANDRGSH | -0.868
SPREGHMMDALYAQVK | -0.201
ESSTVSEEDYFSSHRD | 0.52
LKGRRLVFDN | -0.449

A few entries again (study 1):
Sequence | E-score
ACAGGTAC | -0.136
ACATGCCT | -0.0683
AACAATAT | 0.0292
GACTGCTC | -0.0822
ATGTCAGA | -0.0693
GGCCACTA | -0.0476
